# Measured values gathered from unrelated publications.
# Parts stem from different laboratories: compare values within a part only.
# UniProt P10721, sequence (whole entry, unmodified, looked up): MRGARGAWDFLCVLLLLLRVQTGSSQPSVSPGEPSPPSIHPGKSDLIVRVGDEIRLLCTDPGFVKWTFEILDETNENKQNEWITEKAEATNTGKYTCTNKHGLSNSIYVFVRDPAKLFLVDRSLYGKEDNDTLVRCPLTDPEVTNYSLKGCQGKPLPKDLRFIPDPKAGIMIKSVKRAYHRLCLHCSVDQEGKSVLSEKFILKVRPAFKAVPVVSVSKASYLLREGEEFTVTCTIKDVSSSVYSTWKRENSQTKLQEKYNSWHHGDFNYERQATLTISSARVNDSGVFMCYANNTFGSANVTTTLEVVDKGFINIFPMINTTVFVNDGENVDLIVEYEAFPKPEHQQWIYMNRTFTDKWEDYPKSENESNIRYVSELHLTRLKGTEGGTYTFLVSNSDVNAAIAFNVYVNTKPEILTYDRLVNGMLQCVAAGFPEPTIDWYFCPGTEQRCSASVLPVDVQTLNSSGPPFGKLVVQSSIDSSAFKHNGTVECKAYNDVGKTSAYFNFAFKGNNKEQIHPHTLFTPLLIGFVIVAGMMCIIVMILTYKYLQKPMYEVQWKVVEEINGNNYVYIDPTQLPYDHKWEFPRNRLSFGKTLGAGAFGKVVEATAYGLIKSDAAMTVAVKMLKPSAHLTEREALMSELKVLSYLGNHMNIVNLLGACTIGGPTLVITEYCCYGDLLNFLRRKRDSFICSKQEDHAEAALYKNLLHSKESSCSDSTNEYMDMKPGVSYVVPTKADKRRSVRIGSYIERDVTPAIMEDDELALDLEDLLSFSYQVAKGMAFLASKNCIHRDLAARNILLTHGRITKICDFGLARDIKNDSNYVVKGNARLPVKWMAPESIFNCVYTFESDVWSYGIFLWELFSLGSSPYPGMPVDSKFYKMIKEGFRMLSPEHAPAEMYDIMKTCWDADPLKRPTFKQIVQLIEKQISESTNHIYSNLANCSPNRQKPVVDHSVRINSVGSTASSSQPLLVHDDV
# UniProt O14920, sequence (whole entry, looked up): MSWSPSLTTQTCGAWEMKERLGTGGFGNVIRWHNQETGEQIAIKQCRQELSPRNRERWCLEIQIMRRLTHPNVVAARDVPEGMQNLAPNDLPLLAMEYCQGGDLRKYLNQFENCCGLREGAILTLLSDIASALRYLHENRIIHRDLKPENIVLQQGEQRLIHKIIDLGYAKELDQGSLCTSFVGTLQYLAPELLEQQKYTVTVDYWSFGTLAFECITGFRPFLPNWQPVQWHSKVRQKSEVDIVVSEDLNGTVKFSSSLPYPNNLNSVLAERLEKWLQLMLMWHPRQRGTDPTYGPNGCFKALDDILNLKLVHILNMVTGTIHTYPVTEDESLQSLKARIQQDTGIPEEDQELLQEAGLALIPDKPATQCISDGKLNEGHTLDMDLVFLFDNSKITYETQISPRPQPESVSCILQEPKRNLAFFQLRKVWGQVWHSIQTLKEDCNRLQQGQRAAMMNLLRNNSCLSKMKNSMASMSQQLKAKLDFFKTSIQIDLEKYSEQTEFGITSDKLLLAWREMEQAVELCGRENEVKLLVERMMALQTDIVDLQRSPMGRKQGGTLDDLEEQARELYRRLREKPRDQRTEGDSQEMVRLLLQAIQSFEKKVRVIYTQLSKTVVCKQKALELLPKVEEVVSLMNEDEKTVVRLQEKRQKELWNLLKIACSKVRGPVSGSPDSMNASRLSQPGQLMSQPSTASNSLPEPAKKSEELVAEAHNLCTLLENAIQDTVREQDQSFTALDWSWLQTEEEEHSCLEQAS
# UniProt P42336, sequence (whole entry, unmodified, looked up): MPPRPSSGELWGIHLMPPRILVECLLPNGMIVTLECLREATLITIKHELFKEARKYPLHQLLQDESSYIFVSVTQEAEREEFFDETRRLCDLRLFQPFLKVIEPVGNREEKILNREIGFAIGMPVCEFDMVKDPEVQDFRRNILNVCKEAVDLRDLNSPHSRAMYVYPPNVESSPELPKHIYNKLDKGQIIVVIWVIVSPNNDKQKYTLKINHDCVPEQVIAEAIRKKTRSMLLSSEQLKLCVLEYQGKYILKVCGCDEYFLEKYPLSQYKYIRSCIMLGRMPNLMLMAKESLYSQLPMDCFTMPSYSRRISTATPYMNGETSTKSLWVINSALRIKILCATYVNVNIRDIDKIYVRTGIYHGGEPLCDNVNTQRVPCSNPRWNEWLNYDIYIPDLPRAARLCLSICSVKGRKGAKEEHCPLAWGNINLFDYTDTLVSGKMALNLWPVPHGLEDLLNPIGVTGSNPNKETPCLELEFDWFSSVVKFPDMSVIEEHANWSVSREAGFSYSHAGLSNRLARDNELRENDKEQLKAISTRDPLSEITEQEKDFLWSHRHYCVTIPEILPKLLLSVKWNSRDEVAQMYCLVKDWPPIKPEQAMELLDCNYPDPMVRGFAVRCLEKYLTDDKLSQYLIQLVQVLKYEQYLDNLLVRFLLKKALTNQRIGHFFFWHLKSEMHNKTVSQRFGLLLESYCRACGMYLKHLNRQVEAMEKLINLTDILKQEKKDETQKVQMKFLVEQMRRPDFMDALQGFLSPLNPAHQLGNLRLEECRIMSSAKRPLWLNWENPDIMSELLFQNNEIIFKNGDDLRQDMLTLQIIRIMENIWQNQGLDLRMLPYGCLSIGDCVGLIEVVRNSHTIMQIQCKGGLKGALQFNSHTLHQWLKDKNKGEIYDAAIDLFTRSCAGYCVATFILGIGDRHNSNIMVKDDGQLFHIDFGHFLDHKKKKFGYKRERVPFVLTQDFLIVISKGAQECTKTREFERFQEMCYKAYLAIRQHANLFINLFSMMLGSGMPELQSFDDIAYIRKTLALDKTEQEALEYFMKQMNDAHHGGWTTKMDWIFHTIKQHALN
# UniProt Q14164, sequence (whole entry, looked up): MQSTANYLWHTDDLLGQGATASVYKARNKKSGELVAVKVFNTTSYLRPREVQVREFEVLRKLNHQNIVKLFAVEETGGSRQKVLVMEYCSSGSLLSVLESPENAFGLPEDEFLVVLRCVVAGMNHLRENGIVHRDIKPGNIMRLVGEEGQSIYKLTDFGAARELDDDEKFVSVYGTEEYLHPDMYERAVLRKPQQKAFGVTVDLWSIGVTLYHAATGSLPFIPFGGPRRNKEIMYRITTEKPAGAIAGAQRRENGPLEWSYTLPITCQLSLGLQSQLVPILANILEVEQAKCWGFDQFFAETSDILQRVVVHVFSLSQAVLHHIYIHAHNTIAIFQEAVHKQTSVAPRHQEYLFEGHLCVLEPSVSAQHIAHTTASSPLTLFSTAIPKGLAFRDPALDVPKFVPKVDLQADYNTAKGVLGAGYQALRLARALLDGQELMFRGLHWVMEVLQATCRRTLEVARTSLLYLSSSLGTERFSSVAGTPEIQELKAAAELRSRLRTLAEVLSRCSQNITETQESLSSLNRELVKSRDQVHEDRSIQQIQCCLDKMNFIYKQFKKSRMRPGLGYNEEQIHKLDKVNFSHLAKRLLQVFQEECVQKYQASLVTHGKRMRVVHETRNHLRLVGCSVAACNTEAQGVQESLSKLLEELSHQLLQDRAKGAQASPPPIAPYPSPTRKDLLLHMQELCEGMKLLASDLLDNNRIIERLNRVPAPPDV
# UniProt Q9UIK4, sequence (whole entry, looked up): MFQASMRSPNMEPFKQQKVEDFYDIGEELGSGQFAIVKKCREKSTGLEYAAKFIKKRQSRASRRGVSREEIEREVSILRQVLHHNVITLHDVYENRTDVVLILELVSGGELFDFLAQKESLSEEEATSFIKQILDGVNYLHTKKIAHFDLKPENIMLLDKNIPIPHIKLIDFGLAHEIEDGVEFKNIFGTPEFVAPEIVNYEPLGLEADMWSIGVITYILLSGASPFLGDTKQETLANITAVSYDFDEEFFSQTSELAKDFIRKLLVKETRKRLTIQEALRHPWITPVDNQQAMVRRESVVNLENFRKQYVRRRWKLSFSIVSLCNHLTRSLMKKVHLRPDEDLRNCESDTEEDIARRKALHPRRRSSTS

# Block 1
# Structure (SMILES): O=C1c2ccccc2-c2nc3nnnn3nc21
# Effect on: enzyme activity
# Action: inhibitor
# Tested at: 0.5 µM
# Reference: control
target,remaining activity [%]
"STK10 (Homo sapiens, UniProt O94804)",84.3
"CHEK2 (Homo sapiens, UniProt O96017)",54.7
"NEK2 (Homo sapiens, UniProt P51955)",77.7
"CAMKK2 (Homo sapiens, UniProt Q96RR4)",76.9
"PRKCA (Homo sapiens, UniProt P17252)",91.4
"cGMP-dependent protein kinase 1, isoform beta (PRKG1, Homo sapiens, UniProt Q13976)",133
"STK39 (Homo sapiens, UniProt Q9UEW8)",89.2
"Cyclin-dependent kinase 4, with cyclin D1 (CDK4, Homo sapiens, UniProt P11802)",59.9
"OXSR1 (Homo sapiens, UniProt O95747)",83
"MAP3K3 (Homo sapiens, UniProt Q99759)",134
"GRK3 (Homo sapiens, UniProt P35626)",106
"Protein kinase C beta type, isoform beta-I (PRKCB, Homo sapiens, UniProt P05771)",83.1
"PRKACA (Homo sapiens, UniProt P17612)",76.6
"CAMK2D (Homo sapiens, UniProt Q13557)",93
"TGFBR2 (Homo sapiens, UniProt P37173)",93.4
"STK11 (Homo sapiens, UniProt Q15831)",99.1
"IKBKE (Homo sapiens, UniProt Q14164)",89.2
"MAPK9 (Homo sapiens, UniProt P45984)",51.9
"IKBKB (Homo sapiens, UniProt O14920)",73.4
"DAPK1 (Homo sapiens, UniProt P53355)",92.2
"Tyrosine-protein kinase Lyn, isoform B (LYN, Homo sapiens, UniProt P07948)",40.1
"Cyclin-dependent kinase 5, with p25 (CDK5, Homo sapiens, UniProt Q00535)",46.4
"DAPK2 (Homo sapiens, UniProt Q9UIK4)",83.4

# Block 2
# Compound: CC[C@@H](C)c1nc2cc(Nc3ccnc4ccc(S(=O)(=O)C(C)C)cc34)ccc2s1
# Target: Receptor-interacting serine/threonine-protein kinase 3 (RIPK3, Homo sapiens, UniProt Q9Y572)
# UniProt Q9Y572, sequence (whole entry, looked up): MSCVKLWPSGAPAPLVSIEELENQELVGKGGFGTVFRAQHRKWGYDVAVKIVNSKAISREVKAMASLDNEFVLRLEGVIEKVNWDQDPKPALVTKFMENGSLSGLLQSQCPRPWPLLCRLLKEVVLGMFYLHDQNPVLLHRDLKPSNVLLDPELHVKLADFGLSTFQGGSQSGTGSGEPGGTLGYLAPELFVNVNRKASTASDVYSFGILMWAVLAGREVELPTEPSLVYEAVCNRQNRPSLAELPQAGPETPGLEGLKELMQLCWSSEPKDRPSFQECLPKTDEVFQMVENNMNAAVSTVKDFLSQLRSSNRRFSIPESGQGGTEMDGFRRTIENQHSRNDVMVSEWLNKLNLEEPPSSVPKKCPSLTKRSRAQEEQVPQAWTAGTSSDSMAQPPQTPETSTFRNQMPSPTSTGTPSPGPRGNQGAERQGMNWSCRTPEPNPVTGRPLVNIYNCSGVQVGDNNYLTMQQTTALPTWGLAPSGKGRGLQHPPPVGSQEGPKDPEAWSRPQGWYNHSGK
# Effect on: kinase activity
# Action: inhibitor
# Technique: ADP-Glo
# Time: 1 h
tested at,inhibition
2.058 nM,35.7%
166.7 nM,108%
55.56 nM,103%
18.52 nM,96.4%
6.173 nM,73.4%

# Block 3
# SMILES: Cc1c(NC(=O)c2cc(C(N)=O)nc3cc(F)ccc23)c(C(F)(F)F)nn1Cc1ccc(C#N)cc1
# Technique: competition with immobilised ligand
# Tested at: 1 µM
target,effect on,remaining binding
"ACVRL1 (Homo sapiens, UniProt P37023)",binding,100%
"NTRK3 (Homo sapiens, UniProt Q16288)",cell-free assay,69%
"CDKL5 (Homo sapiens, UniProt O76039)",binding,77%
"TGFBR1 (Homo sapiens, UniProt P36897)",cell-free assay,80%
"PIK3CA (Homo sapiens, UniProt P42336, I800L)",cell-free assay,78%
"MARK1 (Homo sapiens, UniProt Q9P0L2)",cell-free assay,100%
"PRKCI (Homo sapiens, UniProt P41743)",cell-free assay,84%
"Insulin receptor (INSR, Homo sapiens, UniProt P06213)",cell-free assay,100%
"FLT3 (Homo sapiens, UniProt P36888, F691L/ITD)",cell-free assay,68%
"ULK1 (Homo sapiens, UniProt O75385)",cell-free assay,81%
"TESK1 (Homo sapiens, UniProt Q15569)",cell-free assay,93%
"PIK3CA (Homo sapiens, UniProt P42336, M1043I)",cell-free assay,91%
"IKBKB (Homo sapiens, UniProt O14920)",cell-free assay,92%
"CDK18 (Homo sapiens, UniProt Q07002)",cell-free assay,100%
"KIT (Homo sapiens, UniProt P10721, V559D)",cell-free assay,100%
"CSNK1G3 (Homo sapiens, UniProt Q9Y6M4)",cell-free assay,100%
"TLK2 (Homo sapiens, UniProt Q86UE8)",cell-free assay,100%
"Tyrosine-protein kinase ABL1, non-phosphorylated (ABL1, Homo sapiens, UniProt P00519, F317I)",binding,96%
"eIF-2-alpha kinase GCN2, C-terminal kinase domain (EIF2AK4, Homo sapiens, UniProt Q9P2K8, S808G)",cell-free assay,100%
"HIPK4 (Homo sapiens, UniProt Q8NE63)",cell-free assay,100%
"Mast/stem cell growth factor receptor Kit, autoinhibited (KIT, Homo sapiens, UniProt P10721)",cell-free assay,72%
"CAMK1D (Homo sapiens, UniProt Q8IU85)",cell-free assay,100%
"ALK (Homo sapiens, UniProt Q9UM73, L1196M)",cell-free assay,83%
"BRSK2 (Homo sapiens, UniProt Q8IWQ3)",cell-free assay,100%
"WNK1 (Homo sapiens, UniProt Q9H4A3)",cell-free assay,80%

# Mixed results
Compound,target,test,setting,endpoint,value
Cc1ccc(C(=O)Nc2ccc(S(=O)(=O)[O-])c3cc(S(=O)(=O)[O-])cc(S(=O)(=O)[O-])c23)cc1NC(=O)c1cccc(NC(=O)Nc2cccc(C(=O)Nc3cc(C(=O)Nc4ccc(S(=O)(=O)[O-])c5cc(S(=O)(=O)[O-])cc(S(=O)(=O)[O-])c45)ccc3C)c2)c1.[Na+].[Na+].[Na+].[Na+].[Na+].[Na+],"DNA polymerase theta, ATPase domain (POLQ, Homo sapiens, UniProt O75417)","ATPase activity, inhibitor, ADP-Glo luminescence","77 µM, mean of duplicates",remaining activity,6.56%

# For quick reference, copied from above (block 1):
target,remaining activity [%]
"CHEK2 (Homo sapiens, UniProt O96017)",54.7
"NEK2 (Homo sapiens, UniProt P51955)",77.7
"CAMKK2 (Homo sapiens, UniProt Q96RR4)",76.9
"PRKCA (Homo sapiens, UniProt P17252)",91.4
